Assay results pooled from the literature.
Protocols differ between the studies behind these lines. ± marks the error that the study gave.

SMILES = CN(C)c1ccc(C(=O)NCCCCCCC(=O)NO)cc1; target = HDAC (Lucilia cuprina egg nuclear extract); test = enzyme activity, inhibitor, fluorometric; IC50 = 0.58 µM
SMILES = COc1cc2nccc(Oc3ccc(NC(=S)Nc4cccnc4)c(Cl)c3)c2cc1C(N)=O; target = FGFR1 (Homo sapiens, UniProt P11362); IC50 = 2.67 µM
SMILES = NCc1cn([C@@H]2[C@@H](O[C@H]3C[C@H](C(=O)NCc4ccc(CO)cc4)[C@@H](C(=O)NCc4ccc(CO)cc4)C[C@@H]3OCCCl)O[C@H](CO)[C@@H](O)[C@@H]2O)nn1; target = CD209 antigen (CD209, Homo sapiens, UniProt Q9NNX6); test = cell-free assay, SPR; IC50 = 76 µM
SMILES = COc1ccc(C(C=CCN2CCCC2C(O)C(=O)O)(c2ccc(OC)cc2)c2ccc(OC)cc2)cc1 (centres unmarked); target = SLC6A11 (Homo sapiens, UniProt P48066); test = [3H]GABA uptake, inhibitor; system = HEK293T; conditions = 120 min preincubation; IC50 = 140 µM
SMILES = O=c1c(OCc2ccccc2)c(-c2ccc(Cl)cc2)oc2ccccc12; target = β-glucosidase; test = enzyme activity, inhibitor; IC50 = 0.36 ± 0.19 µM
SMILES = CCCN(CC(=O)N(CCC)CC(=O)N(CCC)CC(=O)N(CCC)CC(=O)N(CC(=O)N(CCC)CC(=O)N(CCC)CC(=O)N(CCC)CC(=O)N(CCC)CC(=O)N(CC(N)=O)Cc1cn(CCCNC(=O)CCCOc2cccc(-c3nc4ccc(-c5nc6ccc(N7CCN(C)CC7)cc6[nH]5)cc4[nH]3)c2)nn1)Cc1cn(CCCNC(=O)CCCOc2cccc(-c3nc4ccc(-c5nc6ccc(N7CCN(C)CC7)cc6[nH]5)cc4[nH]3)c2)nn1)C(=O)CNCc1cn(CCCNC(=O)CCCOc2cccc(-c3nc4ccc(-c5nc6ccc(N7CCN(C)CC7)cc6[nH]5)cc4[nH]3)c2)nn1; target = MBNL1–r(CUG)109 complex; test = MBNL1 displacement; conditions = added: bulk yeast tRNA competitor; IC50 = 0.96 ± 0.1 µM
SMILES = Cc1ccc(C(=O)Nc2ccc(CN)cc2)c(O)c1; target = TMPRSS11D (Homo sapiens, UniProt O60235); test = enzyme activity, inhibitor; conditions = 15 min preincubation, added: Boc-VPR-AMC 100 µM; IC50 = 18.9 ± 1 µM
SMILES = O=C(Nc1cccnc1)c1ccccc1OCc1ccccc1; target = SGMS2 (Homo sapiens, UniProt Q8NHU3); test = enzyme activity, inhibitor; IC50 = 3.94 µM
SMILES = CO[C@H]1O[C@H](CNC(=O)c2ccc3ccccc3c2)[C@@H](O)[C@H](O)[C@@H]1O; target = lecB (Pseudomonas aeruginosa, UniProt Q9HYN5); test = ligand displacement, FP; IC50 = 31 µM
SMILES = NC(=S)Nc1ccccc1[N+](=O)[O-]; target = Urea transporter 1 (Slc14a1, Rattus norvegicus, UniProt P97689); test = urea transport, inhibitor; system = rat erythrocytes; conditions = 15 min; IC50 = 4800 ± 1300 µM
SMILES = NC(=O)NC(c1ccccc1)(c1ccccc1)c1ccccc1; target = Gap junction alpha-8 protein (Gja8, Mus musculus, UniProt P28236); test = gap junction channel current, inhibitor, dual whole-cell voltage clamp; system = N2a transfected with Cx50; IC50 = no effect
SMILES = C[C@@H](O)[C@H](NC(=O)NS(=O)(=O)OC[C@H]1O[C@@H](n2cnc3c(N)ncnc32)[C@H](O)[C@@H]1O)C(=O)O; target = tsaD/tsaC, with TsaB and TsaE (Escherichia coli, UniProt P05852+P45748); test = inhibitor, HPLC; conditions = pH 7.5, 23 °C, preincubation 1 min, added: ATP 1 mM and L-threonine; IC50 = 51.2 ± 1.4 µM
SMILES = N[C@@H](CC#CCN1CCCCC1)C(=O)O; target = collagenase; test = gelatin hydrolysis, inhibitor; IC50 = 2270 µM
SMILES = COc1ccc2c3c(c(Cc4cccc(Cl)c4)[nH]c13)CCNC2=O; target = PDE5A (Homo sapiens, UniProt O76074); test = enzyme activity, inhibitor; IC50 = 0.346 µM
SMILES = COc1cc(/C=C/c2cc(/C=C/c3ccc(O)c(OC)c3)[nH]n2)ccc1O; target = Sterol carrier protein 2 (Helicoverpa armigera, UniProt K7NSY9); test = displacement of 1,8-ANS, fluorescence; conditions = pH 7.0, 25 °C, added: 1,8-ANS 15 µM; IC50 = 26.2 µM
SMILES = O=C(CSc1nc2sc3c(c2c(=O)n1-c1ccccc1)CCCCC3)NN=Cc1ccc(F)cc1; target = DHFR (Homo sapiens, UniProt P00374); test = enzyme activity, inhibitor, ELISA; IC50 = 0.2 µM
SMILES = O=C(NCCCN1CCC(Cc2ccccc2)CC1)c1ccc2cc(Br)ccc2c1; target = SLC6A4 (Homo sapiens, UniProt P31645); test = transporter uptake; IC50 = 0.31 to 46 µM

A few entries again:
SMILES = COc1cc(/C=C/c2cc(/C=C/c3ccc(O)c(OC)c3)[nH]n2)ccc1O; target = Sterol carrier protein 2 (Helicoverpa armigera, UniProt K7NSY9); test = displacement of 1,8-ANS, fluorescence; conditions = pH 7.0, 25 °C, added: 1,8-ANS 15 µM; IC50 = 26.2 µM
SMILES = O=C(CSc1nc2sc3c(c2c(=O)n1-c1ccccc1)CCCCC3)NN=Cc1ccc(F)cc1; target = DHFR (Homo sapiens, UniProt P00374); test = enzyme activity, inhibitor, ELISA; IC50 = 0.2 µM
